Assay results gathered from unrelated publications.
± gives the spread as reported.
Target: Muscarinic acetylcholine receptor M4 (CHRM4, Homo sapiens, UniProt P08173)
UniProt P08173, sequence (whole entry, looked up): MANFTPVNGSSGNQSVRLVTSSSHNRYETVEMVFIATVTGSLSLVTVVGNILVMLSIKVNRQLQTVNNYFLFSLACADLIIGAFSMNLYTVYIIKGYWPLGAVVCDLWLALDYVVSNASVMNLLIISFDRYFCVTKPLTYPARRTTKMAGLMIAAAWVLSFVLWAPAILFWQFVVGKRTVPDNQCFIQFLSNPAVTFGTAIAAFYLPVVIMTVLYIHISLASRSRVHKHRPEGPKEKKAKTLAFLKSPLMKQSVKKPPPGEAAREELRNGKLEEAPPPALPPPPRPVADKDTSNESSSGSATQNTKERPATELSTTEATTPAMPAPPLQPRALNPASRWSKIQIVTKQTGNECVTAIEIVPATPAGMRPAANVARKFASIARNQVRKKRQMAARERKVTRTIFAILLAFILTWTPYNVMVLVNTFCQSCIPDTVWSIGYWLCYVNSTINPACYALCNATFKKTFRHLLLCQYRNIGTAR

SMILES	test	system	conditions	how to read	quantity	result
Brc1ccccc1-c1nnc(CSc2nnnn2-c2ccccc2)o1	ligand displacement, radioligand		10 µM		inhibition	-12%
C=CCn1c(=O)c2ccccc2n2c(SCC(=O)OC)nnc12	receptor activation, agonist		concentration not given, 16 h		Emax	119 ± 4%
CCCCOc1ccc(C(=O)OCC[N+]2(C)CC=CCC2)cc1 (stereo not shown)		membranes	1 µM, 15 h, no carbachol	relative to: control	basal binding	1.2 ± 0.07 fold
CNC(=O)C[C@H](Cc1ccc(C#N)cc1)NC(=O)c1cc(-c2ccc(CN[C@H](C)c3ccc(C)cc3)o2)ccc1Cl	agonist response, antagonist	human cells	10 µM, M4 antagonist		inhibition	31%
CCCCCCOc1ccc(C(=O)OCC[N+]2(C)CC=CCC2)cc1 (stereo not shown)		membranes	1 µM, 15 h, no carbachol	relative to: control	basal binding	1.04 ± 0.03 fold
O=C1c2sc(-c3ccc(N4CCC(CO)CC4)nc3F)nc2CCN1c1cccnc1	ligand displacement, radioligand		1 µM		inhibition	-1%
C=CCn1c(=O)c2ccccc2n2c(SC(C(=O)OCC)c3ccccc3)nnc12 (stereo not shown)	receptor activation, agonist		concentration not given, 16 h		Emax	113 ± 1%
COc1ccc(S(=O)(=O)N2CCc3ccccc3C2)cc1N1CCN(C(=O)c2ccc(F)cc2C(F)(F)F)CC1	ligand displacement, radioligand		1 µM		inhibition	12.3%
C=CCn1c(=O)c2ccccc2n2c(SC3CCOC3=O)nnc12 (stereo not shown)	receptor activation, agonist		concentration not given, 16 h		Emax	114 ± 4%
COc1ccc(C(=O)Nc2c(-c3cccs3)nc3ccccn23)cc1	ligand displacement, radioligand		10 µM		inhibition	< 50%

Some of these lines once more:
SMILES	test	system	conditions	how to read	quantity	result
CCCCCCOc1ccc(C(=O)OCC[N+]2(C)CC=CCC2)cc1 (stereo not shown)		membranes	1 µM, 15 h, no carbachol	relative to: control	basal binding	1.04 ± 0.03 fold
